Measurements pooled from the literature.
± marks the error that the study gave.

CC(=O)O[C@@H]1[C@@H](OC(C)=O)[C@H](Sc2sc(C(=O)c3ccc(Cl)cc3)c(N)c2-c2nc3ccccc3s2)OC[C@H]1OC(C)=O  maximum non-toxic concentration (HEp-2; cytotoxicity; 72 h): 80 µg/mL
O=c1ccn([C@@H]2O[C@H](CO)[C@@H](O)[C@H]2F)c(=O)[nH]1  CC50 (iCell cardiomyocytes; sulforhodamine B; 11 days, galactose medium): > 250 µM
COc1ccc(Cl)cc1Nc1nc2c(ccc3nc(NC(=O)C(C)(C)C)sc32)s1  cytotoxicity (FRT expressing deltaF508-CFTR; concentration not given): toxic
Cc1cc(C#N)cc(C)c1Oc1nc(NC2CCN(Cc3ccc(C(N)=O)cc3)CC2)nc2ccccc12  CC50 (TZM-bl; cell growth or viability, XTT): > 0.247 µM
[Cl-].[Cl-].[Mn+2].c1ccc(CN2CCNCCN(Cc3ccccc3)CCNCC2)cc1  IC50 (THP-1; cell growth or viability): > 20 µM
CCOC(=O)c1cc(-c2nc3ccccc3s2)c(=O)n(NS(=O)(=O)c2ccccc2)c1N  maximum non-toxic concentration (HEp-2; trypan blue; 72 h): 110 µg/mL
COc1ccc2nc3ccc(OC)cc3c(SCCCN)c2c1  EC50 (AHH-1; cytotoxicity; 36 h): > 30 µM
CC(=O)N[C@H](C(=O)N[C@H](C(=O)N[C@@H](CCCNC(=N)N)C(=O)N1Cc2ccccc2C[C@H]1C(=O)N[C@@H](Cc1ccccc1)C(N)=O)C1CCCCC1)C(C)C  cytokine level (human PBMC; Bio-Plex multiplex, measured: IFN-g; 500 µg/mL, 24 h): 26.9 ± 6.2 pg/mL
C=CC(=C)CC[C@]1(C)[C@H](C)C[C@H](O)[C@@]23C(=C[C@H](OC(=O)C(C)C)C[C@@H]12)[C@@H](OC(C)=O)O[C@H]3OC(C)=O  IC50 (KB-VIN (P-gp-overexpressing); cell growth, SRB): 0.98 µM
CC(C)=C1CC[C@]2(COC(=O)c3ccccc3)[C@@H](OC(=O)c3ccccc3)/C=C(\C)CC[C@@H]3O[C@@]3(C)C[C@@H](OC(=O)c3cccnc3)[C@@H]12  viability (HepG2; cell growth or viability, CCK-8; 30 µM, 24 h): 91%
CC(=O)OC[C@H]1O[C@@H](Sc2sc(C(=O)c3ccc(Cl)cc3)c(N)c2-c2nc3ccccc3s2)[C@H](OC(C)=O)[C@@H](OC(C)=O)[C@@H]1OC(C)=O  maximum non-toxic concentration (HEp-2; cytotoxicity; 72 h): 80 µg/mL
COc1cc2c(OC3OCC(OC)C(OC)C3OC(=O)c3ccc(Br)cc3)c3c(c(-c4ccc5c(c4)OCO5)c2cc1OC)C(=O)OC3 (centres unmarked)  cytotoxicity (FaDu, CAL-27 and Ca9-22; MTT; concentration not given, 48 h): not toxic
COC1C=COC2(C)Oc3c(C)c(O)c4c(c3C2=O)C2=NC3(CCN(CC(C)C)CC3)NC2=C(NC(=O)C(C)=CC=CC(C)C(O)C(C)C(O)C(C)C(OC(=O)Nc2cscn2)C1C)C4=O (centres unmarked)  intracellular/extracellular ratio (THP-1 derived macrophages; reference: intracellular over extracellular): 93
Nc1ncnc2c1ncn2[C@@H]1O[C@H](CO)[C@@H](O)[C@H]1F  CC50 (SkMC; sulforhodamine B; 11 days, glucose medium): 114 µM
C=CC(=O)N1CCCC(n2c(=O)c3ncccc3n(Cc3ccc(Oc4ccccc4)cc3)c2=O)C1 (centres unmarked)  intracellular concentration (HCT-116 and Rec1; 0.2 µM, 6 h): 20 to 40 nM
CCOC(=O)c1cc(-c2nc3ccccc3s2)c(=O)n(NS(=O)(=O)c2ccc(Cl)cc2)c1N  maximum non-toxic concentration (HEp-2; trypan blue; 72 h): 130 µg/mL
CC/C(=C(\c1ccc(O)cc1)c1ccc(OCCN(C)CCOCCOCCOCCOCCOCCOCCOCCN(C)CCOc2ccc(/C(=C(/CC)c3ccccc3)c3ccc(O)cc3)cc2)cc1)c1ccccc1  cell density (U2OS transfected with ERβ; 10 µM, cytotoxicity): 9%
C[C@H](CCC=O)[C@@H]1CC[C@]2(C)C3=C(CC[C@@]12C)[C@@]1(C)CC[C@H](O)C(C)(C)[C@@H]1CC3  inhibition (HCT-15; cell growth or viability, SRB; 50 µM): 74.6%
Cc1cc(/C=C/C#N)cc(C)c1Oc1nc(NC2CCN(Cc3ccc(S(N)(=O)=O)cc3)CC2)nc2ccccc12  CC50 (TZM-bl; cell growth or viability, XTT): 21.6 µM
Nc1ccn([C@@H]2O[C@H](CO)[C@@H](O)[C@H]2F)c(=O)n1  CC50 (SkMC; sulforhodamine B; 11 days, glucose medium): > 250 µM
CC/C(=C(\c1ccc(O)cc1)c1ccc(OCCN(C)CCOCCOCCOCCOCCN(C)CCOc2ccc(/C(=C(/CC)c3ccccc3)c3ccc(O)cc3)cc2)cc1)c1ccccc1  cell density (U2OS transfected with ERβ; 10 µM, cytotoxicity): 59%
CC(=O)OC[C@H]1O[C@@H](Sc2sc(C(=O)c3ccc(Br)cc3)c(N)c2-c2nc3ccccc3s2)[C@H](OC(C)=O)[C@@H](OC(C)=O)[C@@H]1OC(C)=O  maximum non-toxic concentration (HEp-2; cytotoxicity; 72 h): 100 µg/mL
Cc1cc(C#N)cc(C)c1Oc1nc(NC2CCN(Cc3ccc(S(N)(=O)=O)cc3)CC2)nc2ccccc12  CC50 (TZM-bl; cell growth or viability, XTT; 96 h): > 0.23 µM
Cc1nn(-c2ccc(S(=O)(=O)N[C@H](CO)CC(C)C)cc2)c2nn3nnnc3nc12  tail DNA (human peripheral blood lymphocytes; DNA damage, alkaline comet; 1 µM, 24 h): 15.4 ± 1.8%
O=c1c(Br)c2oc3c(CN(Cc4ccccn4)Cc4cnccn4)c(O)ccc3nc-2c2ccccc12  Pearson's coefficient (rat neural stem cells; colocalisation with ER-Tracker): 0.699
C=C(c1ccc(C(=O)O)c(F)c1)c1cc2c(cc1C)C(C)(C)C=CC2(C)C  lowest effective concentration (TK6; cytotoxicity, GreenScreen; with: rat liver S9): 33.9 µg/mL
Cc1ccc(C(C)C)cc1.[Cl-].[Cl][Ru+].[Ru+].c1ccc(-c2cn(CCCCOc3ccccc3-c3nc4ccccc4s3)nn2)nc1  viable cells (MCF7; annexin V/PI flow cytometry; 4 µM, 24 h): 75.2%
CC(=O)[O-].CN1CCN2CCN(CC1)CCN(Cc1ccccc1)CC2.F[P-](F)(F)(F)(F)F.[Cu+2]  IC50 (THP-1; cell growth or viability): > 20 µM
OC[C@H]1O[C@H](OCCCCCCCCCCC(F)(F)C(F)(F)C(F)(F)C(F)(F)C(F)(F)C(F)(F)F)[C@H](O)[C@@H](O)[C@@H]1O  EC50 (B16-F10; cytotoxicity, MTT; 24 h): 47 µM
CCCC[C@H](NC(=O)[C@H](CC(=O)O)NC(=O)[C@H](CC(=O)O)NC(=O)[C@H](CCC(=O)O)NC(=O)[C@H](Cc1ccc(O)cc1)NC(=O)[C@H](CC(=O)O)NC(=O)[C@H](CC(=O)O)NC(=O)[C@H](CCC(=O)O)NC(=O)[C@H](CC(C)C)NC(=O)[C@H](CCC(=O)O)NC(=O)[C@H](CCC(=O)O)NC(=O)c1ccc2c(c1)C1(OC2=O)c2ccc(O)cc2Oc2cc(O)ccc21)C(=O)N[C@@H](CCC(=O)O)C(=O)N[C@@H](CCC(=O)O)C(N)=O  degradation (BEAS-2B; CE-LIF; 60 s, single cells): 2 to 3%
CNCc1ccc2c(c1)N(C(=O)OCc1c(F)c(F)c(F)c(F)c1F)[C@H](CNC(=N)N)[C@H]2NC(=O)C(=O)Nc1ccc(Cl)c(F)c1  cytotoxic concentration (TZM-bl; cell proliferation; 72 h): ≥ 50 µM
O=c1[nH]cc(C(c2cccc(Cl)c2)c2c[nH]c(=O)[nH]c2=O)c(=O)[nH]1  cytotoxicity (Ba/F3; 1 µg/mL): not toxic
Cc1cc(/C=C/C#N)cc(C)c1Oc1nc(NC2CCN(Cc3ccc(S(C)(=O)=O)cc3)CC2)nc2ncccc12  CC50 (TZM-bl; cell growth or viability, XTT; 96 h): 14.2 µM
[99Tc+].[C-]#[N+]CC(C)(C)OC.[C-]#[N+]CC(C)(C)OC.[C-]#[N+]CC(C)(C)OC.[C-]#[N+]CC(C)(C)OC.[C-]#[N+]CC(C)(C)OC.[C-]#[N+]CC(C)(C)OC  basolateral efflux fraction (rat sandwich-cultured hepatocytes; reference: total efflux): 63.2%
C/C=C/CNC(=N)NCCCCCCCCN1CCCc2cc(Cl)ccc2COc2ccccc2CNC(=N)NC1=O  CC50 (normal human dermal fibroblasts; MTT; 48 h): 25.4 ± 1.67 µg/mL
COC(=O)NC(C(=O)NN(Cc1ccc(Br)cc1)CC(O)(Cc1ccccc1)C(=O)Nc1cccc(O)c1C)C(C)(C)C (centres unmarked)  Papp (2/4/A1; pH 7.4): 374 ×10⁻⁶ cm/s
CC(=O)[O-].F[P-](F)(F)(F)(F)F.[Ni+2].c1ccc(CN2CCN3CCN(CC2)CCN(Cc2ccccc2)CC3)cc1  IC50 (THP-1; cell growth or viability): > 20 µM
COc1ccc(NC(=O)N2CCCN3CCC(c4ccc(C#Cc5ccccc5)cc4)C3C2)cc1 (centres unmarked)  Papp A→B (MDCK-MDR1; Caco-2): 0.45 ×10⁻⁶ cm/s

For quick reference, copied from above:
O=c1c(Br)c2oc3c(CN(Cc4ccccn4)Cc4cnccn4)c(O)ccc3nc-2c2ccccc12  Pearson's coefficient (rat neural stem cells; colocalisation with ER-Tracker): 0.699
Cc1cc(/C=C/C#N)cc(C)c1Oc1nc(NC2CCN(Cc3ccc(S(C)(=O)=O)cc3)CC2)nc2ncccc12  CC50 (TZM-bl; cell growth or viability, XTT; 96 h): 14.2 µM
Cc1cc(C#N)cc(C)c1Oc1nc(NC2CCN(Cc3ccc(S(N)(=O)=O)cc3)CC2)nc2ccccc12  CC50 (TZM-bl; cell growth or viability, XTT; 96 h): > 0.23 µM
CC/C(=C(\c1ccc(O)cc1)c1ccc(OCCN(C)CCOCCOCCOCCOCCOCCOCCOCCN(C)CCOc2ccc(/C(=C(/CC)c3ccccc3)c3ccc(O)cc3)cc2)cc1)c1ccccc1  cell density (U2OS transfected with ERβ; 10 µM, cytotoxicity): 9%
